# Published values from different studies.
# Numbers after ± are the reported error.
Compound,cell line,assay,system,conditions,scale,endpoint,value
Cc1ccc(Cn2cc(C(=O)NN)c(=O)c3cc(Oc4ccccc4)ccc32)cc1,MRC-5,cytotoxicity,,,,EC50,> 64 µM
N#Cc1ccc(Nc2nc(N)cc(Oc3ccc(-c4ccc(C#N)cc4)c(C(F)(F)F)c3)n2)cc1,MT4 uninfected,,,,,CC50,> 291 µM
COC(=O)c1c(C)ncn1CC(c1c[nH]c2ccc(C)cc12)c1c[nH]c2ccc(C)cc12,human primary fibroblasts,"viability, MTS",,24 h,,CC50,> 20 µM
N#Cc1ccc(Nc2nc(N)cc(Oc3ccc(-c4ccc(F)cc4)cc3)n2)cc1,MT4 uninfected,,,,,CC50,20.4 ± 7.53 µM
COc1c(O)c(C)cc2c1C(=O)c1c(ccc(O)c1O)C2=O,HK-2 co-cultured with HepaRG,MTT,,"133.33 µM, 24 h",reference: untreated control,viability,83.7 ± 13.5%
CC[C@H](C)[C@H](NC(=O)[C@H](CC(=O)O)NC(=O)[C@H](CCC(=O)O)NC(=O)[C@@H](N)CC(N)=O)C(=O)N[C@@H](CC(=O)O)C(=O)N[C@@H](CCC(N)=O)C(=O)N[C@@H](CCSC)C(=O)N[C@@H](Cc1ccccc1)C(=O)N[C@@H](CO)C(=O)N[C@H](C(=O)N[C@@H](CC(C)C)C(=O)N[C@@H](CC(C)C)C(=O)NCC(=O)N[C@@H](CCC(=O)O)C(=O)N[C@@H](CCSC)C(=O)N[C@@H](CC(=O)O)C(=O)N[C@@H](CC(C)C)C(=O)N[C@@H](CC(C)C)C(=O)N[C@H](C(=O)N[C@@H](CCC(N)=O)C(=O)N[C@@H](CO)C(=O)O)[C@@H](C)O)[C@@H](C)O,CHO,"cell uptake, flow cytometry",,"30 min, 37 °C",,uptake concentration,≥ 5 µM
N#Cc1ccc(Nc2nc(N)cc(Oc3c(F)cc(-c4ccc(C#N)cc4)cc3F)n2)cc1,MT4 uninfected,,,,,CC50,117 µM
O=C(O)c1cc(O)c2c(c1)C(=O)c1cccc(O)c1C2=O,HK-2 co-cultured with HepaRG,MTT,,"266.67 µM, 24 h",reference: untreated control,viability,46.5 ± 12.1%
N=C(N)c1ccc(OCCCCCOc2ccc(C(=N)N)cc2)cc1,human primary fibroblasts,"viability, MTS",,24 h,,CC50,> 20 µM
COc1c(O)cc2c(c1O)C(=O)c1c(cc(C)c(O)c1OC)C2=O,HK-2 co-cultured with HepaRG,MTT,,"133.33 µM, 24 h",reference: untreated control,viability,89.2 ± 12.5%
N#Cc1ccc(Nc2nc(N)cc(Oc3ccc(-c4ccc(C#N)cc4)c(C#N)c3)n2)cc1,MT4 uninfected,,,,,CC50,> 291 µM
C=CCNC1=C2C[C@@H](C)C[C@H](OC)[C@H](O)[C@@H](C)/C=C(\C)[C@H](OC(N)=O)[C@@H](OC)/C=C\C=C(/C)C(=O)NC(=CC1=O)C2=O,MYBPC3-mutant iPSC cardiomyocytes,cell viability,,24 h,,EC50,> 60 µM
CSc1c(-c2nc3ccccc3s2)c(N)n(NS(=O)(=O)c2ccc(C)cc2)c(=O)c1C#N,Huh7.5,,,72 h,,maximum non-toxic concentration,100 µg/mL
COc1c(O[C@@H]2O[C@H](CO)[C@@H](O)[C@H](O)[C@H]2O)c(C)cc2c1C(=O)c1c(O)cccc1C2=O,HK-2 co-cultured with HepaRG,MTT,,"266.67 µM, 24 h",reference: untreated control,cell viability,54.6 ± 7.46%
CCCCc1oc2ccc(NS(C)(=O)=O)cc2c1C(=O)c1ccc(OCCCN(CCCC)CCCC)cc1,H9 human embryonic stem cell aggregates,qRT-PCR,3D aggregates,"0.5 µM, 5 days, developmental toxicity model",direction not given,ALERT score,11
N#Cc1ccc(Nc2nc(N)cc(Oc3ccc(-c4ccc(C#N)cc4)c(F)c3)n2)cc1,MT4 uninfected,,,,,CC50,10.8 µM
CCCCc1oc2ccccc2c1C(=O)c1cc(I)c(OCCN(CC)CC)c(I)c1,H9 human embryonic stem cell aggregates,qRT-PCR,3D aggregates,"1 µM, 5 days, developmental toxicity model",direction not given,ALERT score,0
Cc1ccc(S(=O)(=O)Nc2ncc(-c3nc4ccccc4s3)c(N)n2)cc1,Huh7.5,cytotoxicity,,72 h,,maximum non-toxic concentration,110 µg/mL
COc1c(O)c(C)cc2c1C(=O)c1c(O)cccc1C2=O,HK-2 co-cultured with HepaRG,MTT,,"33.33 µM, 48 h",reference: untreated control,viability,82.2 ± 7.52%
N#Cc1ccc(Nc2nc(N)cc(Oc3ccc(-c4ccc(C#N)cc4)cc3F)n2)cc1,MT4 uninfected,,,,,CC50,221 µM
C/C(O)=C(\C#N)C(=O)Nc1ccc(C(F)(F)F)cc1,SIRC,,culture medium,"10 µM, 48 h",,free drug concentration,2600 nM
c1csc(CNc2cc[nH]n2)c1,"human peripheral blood lymphocytes, female",,,"25 µg/mL, 20 h, without S9",,cells with structural aberrations,1%
Cc1noc(C)c1Cn1cc(N2C(=O)CN(Cc3cccc(O)c3)C2=O)cn1,human blood lymphocytes,,,"823.8 µg/mL, 3 h, with 2% S9",,aberrant cells with gaps,2.5%
CSc1c(-c2nc3ccccc3s2)c(N)n(NS(=O)(=O)c2ccccc2)c(=O)c1C#N,Huh7.5,,,72 h,,maximum non-toxic concentration,100 µg/mL
Cc1ccnc2c1NC(=O)c1cccnc1N2C1CC1,MT4 uninfected,,,,,CC50,> 15 µM
COc1ccc(-c2nc(N)nc(N)c2-c2nc3ccccc3s2)cc1,Huh7.5,cytotoxicity,,72 h,,maximum non-toxic concentration,80 µg/mL
Cc1ccc(S(=O)(=O)Nn2c(N)c(C#N)cc(C#N)c2=O)cc1,Huh7.5,,,72 h,,maximum non-toxic concentration,90 µg/mL
Cc1cc(C(=O)NC(C)(C)COc2cccc3c2C(N)=NS(=O)(=O)N3)cc(C)n1,human peripheral blood lymphocytes,"CBPI, concurrent micronucleus test",,"500 µg/mL, 24 h",reference: vehicle control,cytotoxicity,1%
N#Cc1ccc(Nc2nc(N)cc(Oc3ccc(-c4ccc(C#N)cc4)cc3C(F)(F)F)n2)cc1,MT4 uninfected,,,,,CC50,66.4 µM
COc1ccc(-c2nc(NS(=O)(=O)c3ccccc3)nc(N)c2-c2nc3ccccc3s2)cc1,Huh7.5,cytotoxicity,,72 h,,maximum non-toxic concentration,100 µg/mL
COc1ccc2c(Cc3ccccc3F)c3n(c(=O)c2c1OC)CCc1cc2c(cc1-3)OCO2,CHO-K1,"cytotoxicity, CCK-8",,24 h,,IC50,12.1 µM
Cc1cc(O)c2c(c1)C(=O)c1cccc(O)c1C2=O,HK-2 co-cultured with HepaRG,MTT,,"133.33 µM, 24 h",reference: untreated control,viability,90.2 ± 16.6%
COC[C@@H](CC(C)C)NC(=O)c1ccc(C)c(C)c1,primary human lymphocytes,refers to: structural aberrations,,"158 µg/mL, 20 h, without S9",,cells with aberrations,0%
Nc1nc(NS(=O)(=O)c2ccccc2)nc(-c2ccccc2)c1-c1nc2ccccc2s1,Huh7.5,cytotoxicity,,72 h,,maximum non-toxic concentration,90 µg/mL
O=C1c2cccc(O)c2C(=O)c2c(O)cc(CO)cc21,HK-2 co-cultured with HepaRG,MTT,,"266.67 µM, 48 h",reference: untreated control,viability,11.1 ± 6.88%
CCO[C@H]1CN(C2CCC(O)(c3ccc4c(c3)OCO4)CC2)C[C@@H]1NC(=O)CNC(=O)c1cccc(C(F)(F)F)c1 (stereo partly shown),THP-1,Hoechst/PI staining,,"10 µM, 5 h, together with: 10 nM CCL2",,viability,no effect
CSc1nc(NS(=O)(=O)c2ccc(C)cc2)nc(N)c1-c1nc2ccccc2s1,Huh7.5,cytotoxicity,,72 h,,maximum non-toxic concentration,100 µg/mL
CCCCCCCCN(CCC(=O)Nc1ccccc1)C(=O)[C@H]1CCCN1,Lmna G609G/G609G mouse fibroblasts,MTT,,"2 µM, 72 h",reference: vehicle-treated wild type,viability,80 ± 7%
CC(=O)c1c(C)cc2cc(O)cc(O[C@@H]3O[C@H](CO)[C@@H](O)[C@H](O)[C@H]3O)c2c1O,HK-2 co-cultured with HepaRG,MTT,,"33.33 µM, 24 h",reference: untreated control,cell viability,118 ± 13.2%
Nc1n[nH]c2c(-c3nc4ccccc4s3)c(N)n(NS(=O)(=O)c3ccccc3)c(=O)c12,Huh7.5,,,72 h,,maximum non-toxic concentration,90 µg/mL
CCCCC(CC)COC(=O)CC(C(=O)OCC(CC)CCCC)S(=O)(=O)O (stereo not shown),THP-1,MTT,,50 µM,,cytotoxicity,not toxic
Cc1ccc(S(=O)(=O)Nc2nc(N)c(-c3nc4ccccc4s3)c(-c3ccccc3)n2)cc1,Huh7.5,cytotoxicity,,72 h,,maximum non-toxic concentration,90 µg/mL
COC(=O)c1c(C)ncn1CC(c1c[nH]c2ccccc12)c1c[nH]c2ccccc12,human primary fibroblasts,"viability, MTS",,24 h,,CC50,> 20 µM
